Results gathered from unrelated publications.
A part holds a random share of what one study measured.
Chain of UniProt Q07912 (whole entry, looked up): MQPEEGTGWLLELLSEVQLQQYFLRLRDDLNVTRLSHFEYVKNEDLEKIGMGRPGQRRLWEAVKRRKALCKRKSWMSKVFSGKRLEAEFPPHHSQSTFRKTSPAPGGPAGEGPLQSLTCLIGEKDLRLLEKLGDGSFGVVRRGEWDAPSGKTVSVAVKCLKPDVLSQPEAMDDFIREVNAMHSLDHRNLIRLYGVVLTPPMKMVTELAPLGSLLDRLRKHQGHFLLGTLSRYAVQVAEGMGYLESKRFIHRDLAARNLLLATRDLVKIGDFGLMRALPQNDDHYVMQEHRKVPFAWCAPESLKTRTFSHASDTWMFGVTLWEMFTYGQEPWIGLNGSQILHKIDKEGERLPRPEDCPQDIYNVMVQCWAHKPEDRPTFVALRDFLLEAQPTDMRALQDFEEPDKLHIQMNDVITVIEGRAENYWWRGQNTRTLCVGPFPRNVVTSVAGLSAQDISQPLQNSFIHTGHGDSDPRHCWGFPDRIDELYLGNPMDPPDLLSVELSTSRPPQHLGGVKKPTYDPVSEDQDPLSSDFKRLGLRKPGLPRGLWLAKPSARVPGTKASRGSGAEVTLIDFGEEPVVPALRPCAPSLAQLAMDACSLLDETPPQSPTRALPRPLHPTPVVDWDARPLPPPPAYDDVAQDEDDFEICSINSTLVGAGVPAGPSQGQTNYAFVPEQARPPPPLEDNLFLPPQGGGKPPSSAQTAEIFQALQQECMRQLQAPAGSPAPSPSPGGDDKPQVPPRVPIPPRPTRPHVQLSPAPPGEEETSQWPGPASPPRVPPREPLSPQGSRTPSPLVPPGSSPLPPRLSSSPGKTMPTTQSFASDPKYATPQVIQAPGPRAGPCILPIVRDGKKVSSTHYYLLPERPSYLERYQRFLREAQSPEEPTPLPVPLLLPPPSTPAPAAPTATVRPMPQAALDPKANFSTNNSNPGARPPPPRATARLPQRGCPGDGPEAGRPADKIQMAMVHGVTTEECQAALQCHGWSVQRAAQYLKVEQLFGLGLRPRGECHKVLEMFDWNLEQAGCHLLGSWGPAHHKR
Chain of UniProt Q9UQ88 (whole entry, looked up): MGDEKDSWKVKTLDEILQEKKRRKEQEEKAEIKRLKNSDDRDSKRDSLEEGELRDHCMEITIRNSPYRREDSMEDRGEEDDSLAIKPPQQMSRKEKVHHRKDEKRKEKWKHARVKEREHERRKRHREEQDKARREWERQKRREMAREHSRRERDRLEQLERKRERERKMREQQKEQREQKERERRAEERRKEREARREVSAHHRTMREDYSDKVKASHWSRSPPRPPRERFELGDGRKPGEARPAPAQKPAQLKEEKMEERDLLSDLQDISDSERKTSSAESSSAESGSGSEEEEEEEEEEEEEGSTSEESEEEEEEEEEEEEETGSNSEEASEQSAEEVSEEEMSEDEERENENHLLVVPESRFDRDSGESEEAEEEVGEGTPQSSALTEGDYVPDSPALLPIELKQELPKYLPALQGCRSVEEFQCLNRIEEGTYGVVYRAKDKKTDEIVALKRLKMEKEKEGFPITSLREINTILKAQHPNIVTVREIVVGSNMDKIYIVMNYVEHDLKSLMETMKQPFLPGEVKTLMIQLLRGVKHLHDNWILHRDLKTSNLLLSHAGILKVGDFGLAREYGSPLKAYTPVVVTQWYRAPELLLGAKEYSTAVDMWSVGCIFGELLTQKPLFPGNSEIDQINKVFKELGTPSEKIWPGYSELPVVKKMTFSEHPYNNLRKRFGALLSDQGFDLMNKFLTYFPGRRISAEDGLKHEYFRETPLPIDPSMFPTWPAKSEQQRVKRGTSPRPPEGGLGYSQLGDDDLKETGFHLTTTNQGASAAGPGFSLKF
Chain of UniProt Q9H093 (whole entry, looked up): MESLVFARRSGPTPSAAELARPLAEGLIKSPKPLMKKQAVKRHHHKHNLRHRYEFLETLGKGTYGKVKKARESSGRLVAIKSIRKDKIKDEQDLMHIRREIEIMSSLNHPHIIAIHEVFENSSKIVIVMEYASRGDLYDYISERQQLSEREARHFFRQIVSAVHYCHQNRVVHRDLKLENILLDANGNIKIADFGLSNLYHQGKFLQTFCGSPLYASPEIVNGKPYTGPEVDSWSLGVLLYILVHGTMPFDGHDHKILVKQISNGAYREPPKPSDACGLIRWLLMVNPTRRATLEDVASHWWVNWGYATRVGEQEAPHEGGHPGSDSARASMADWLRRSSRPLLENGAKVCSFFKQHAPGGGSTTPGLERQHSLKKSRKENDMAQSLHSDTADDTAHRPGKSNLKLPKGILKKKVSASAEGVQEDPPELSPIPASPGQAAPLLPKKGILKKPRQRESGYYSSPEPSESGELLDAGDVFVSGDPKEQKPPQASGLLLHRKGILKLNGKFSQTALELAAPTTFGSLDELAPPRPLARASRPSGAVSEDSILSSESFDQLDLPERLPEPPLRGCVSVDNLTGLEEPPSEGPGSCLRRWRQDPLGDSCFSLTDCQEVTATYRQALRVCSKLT
Chain of UniProt Q6P3R8 (whole entry, looked up): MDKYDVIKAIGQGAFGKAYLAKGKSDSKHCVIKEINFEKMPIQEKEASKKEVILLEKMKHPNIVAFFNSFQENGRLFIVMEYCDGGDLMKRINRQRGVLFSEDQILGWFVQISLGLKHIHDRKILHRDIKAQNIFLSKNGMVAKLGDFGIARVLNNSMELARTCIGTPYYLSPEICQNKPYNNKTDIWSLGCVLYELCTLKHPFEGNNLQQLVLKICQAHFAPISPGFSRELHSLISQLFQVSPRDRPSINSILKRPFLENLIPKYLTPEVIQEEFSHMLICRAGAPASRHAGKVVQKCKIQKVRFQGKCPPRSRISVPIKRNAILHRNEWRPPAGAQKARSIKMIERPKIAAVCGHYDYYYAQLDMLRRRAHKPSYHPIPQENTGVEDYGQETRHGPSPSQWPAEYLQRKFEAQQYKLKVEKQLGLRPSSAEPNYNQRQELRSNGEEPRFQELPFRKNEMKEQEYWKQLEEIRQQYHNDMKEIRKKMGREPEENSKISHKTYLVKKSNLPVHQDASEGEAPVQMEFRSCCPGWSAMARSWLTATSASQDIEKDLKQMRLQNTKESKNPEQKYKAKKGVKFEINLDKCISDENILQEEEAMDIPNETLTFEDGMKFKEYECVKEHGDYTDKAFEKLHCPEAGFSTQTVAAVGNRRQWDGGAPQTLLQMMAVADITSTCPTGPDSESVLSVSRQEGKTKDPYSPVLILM

Set 1
Target: Serine/threonine-protein kinase B-raf (BRAF, Homo sapiens, UniProt P15056)
Chain of UniProt P15056 (whole entry, looked up): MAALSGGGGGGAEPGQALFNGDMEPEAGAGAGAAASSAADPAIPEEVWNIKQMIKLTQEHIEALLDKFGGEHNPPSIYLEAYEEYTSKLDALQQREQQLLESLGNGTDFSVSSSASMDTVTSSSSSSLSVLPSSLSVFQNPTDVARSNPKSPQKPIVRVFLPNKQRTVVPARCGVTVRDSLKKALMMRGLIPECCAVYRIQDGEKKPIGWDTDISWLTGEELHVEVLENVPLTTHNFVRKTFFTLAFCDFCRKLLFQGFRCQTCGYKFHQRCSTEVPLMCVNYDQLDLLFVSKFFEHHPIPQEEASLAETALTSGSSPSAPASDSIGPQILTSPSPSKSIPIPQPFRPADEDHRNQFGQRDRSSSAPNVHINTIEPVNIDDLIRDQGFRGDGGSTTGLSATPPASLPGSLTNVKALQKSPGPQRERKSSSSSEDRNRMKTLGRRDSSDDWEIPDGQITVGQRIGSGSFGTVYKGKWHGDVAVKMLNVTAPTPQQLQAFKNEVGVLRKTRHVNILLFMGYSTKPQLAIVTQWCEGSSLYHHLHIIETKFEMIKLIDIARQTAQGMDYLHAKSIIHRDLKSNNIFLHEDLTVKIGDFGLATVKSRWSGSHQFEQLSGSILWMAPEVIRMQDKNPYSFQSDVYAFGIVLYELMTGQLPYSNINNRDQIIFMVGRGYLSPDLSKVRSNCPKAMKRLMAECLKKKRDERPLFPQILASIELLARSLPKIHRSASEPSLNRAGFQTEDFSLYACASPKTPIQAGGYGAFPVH
Read-out: enzyme activity
Action: inhibitor
Concentration: 0.5 µM
Baseline: control
SMILES | remaining activity [%]
COc1cc2ncnc(Nc3ccc(F)c(Cl)c3)c2cc1OCCCN1CCOCC1 | 95.8
O=S(=O)(c1cccc2cnccc12)N1CCCNCC1 | 97.7
Cc1cccc(-c2[nH]c(C(C)(C)C)nc2-c2ccc3c(c2)OCO3)n1 | 111
NCCNc1ncc(C(N)=O)c(Nc2cccc(C(F)(F)F)c2)n1 | 93.8
OCC(O)CCON=C1C(c2c(O)[nH]c3ccccc23)=Nc2ccccc21 (stereo not shown) | 103
CN(C)c1ccc(C=C2C(=O)Nc3ccccc32)cc1 | 101
Nc1ncnc2n[nH]c(Nc3ccc(F)cc3)c12 | 91.7
CCOC(=O)c1c(C)[nH]c(/C=C2\C(=O)Nc3ccccc32)c1C | 96.7
O=C(Nc1cccc(Nc2cc(Nc3cccc(C(F)(F)F)c3)ncn2)c1)C1CC1 | 96.8
COc1cc2ncnc(Nc3ccc(Oc4ccccc4)cc3)c2cc1OC | 79.6
Cn1c2ccccc2c2c3c(c4c5ccccc5n(CCC#N)c4c21)CNC3=O | 110
N#CC(C#N)=C(N)/C(C#N)=C/c1ccc(O)cc1 | 90.1
Oc1ccc(-c2nc(-c3ccncc3)c(-c3ccc(F)cc3)[nH]2)cc1 | 60.5
Cn1sc(=O)n(Cc2ccccc2)c1=O | 98.1
O=C(O)c1ccc2c3c1cccc3c(=O)n1c3ccccc3nc21 | 95.1
COc1ccc(CNC(=O)Nc2ncc([N+](=O)[O-])s2)cc1 | 93.4
Nc1[nH]nc2nc3ccccc3nc12 | 102
O=C(CCCc1ccc(-c2ccccc2F)cc1)Nc1ccc(O)cc1 | 93
C#Cc1cccc(Nc2ncnc3cc(OCCOC)c(OCCOC)cc23)c1 | 93.5
COc1ccc(OC)c2c(=S)c3ccccc3[nH]c12 | 88.5
CC(C)[C@H](CO)Nc1nc(Nc2cc(N)cc(Cl)c2)c2ncn(C(C)C)c2n1 | 97.5

Set 2
Host: human
Matrix: microsomes or S9
Concentration: 2 µM
Time: 0.5 h
Structure (SMILES) | remaining compound [%]
Cc1ccc(-n2ccc3c(cnc4ccn(-n5cnnc5)c(=O)c43)c2=O)cc1C | 95.2
CC1CCC(NS(=O)(=O)CC(=O)N(C)Cc2ccccn2)CC1 (stereo not shown) | 53.9
COCCn1cc(C(=O)NCc2nc3ccccc3[nH]2)c2ccccc2c1=O | 52.5
O=C(Cc1c[nH]c2ccccc12)N1CCc2cc(-c3ccno3)ccc21 | 60.9
O=C(CCn1c(Cc2ccccc2F)nc2cc(Cl)c(Cl)cc21)NCCN1CCOCC1 | 1.24

Set 3
SMILES: CS(=O)(=O)c1cc(C2(NC(=O)c3cncc4c3cnn4-c3ccc(F)cc3)CC2)ccn1
Read-out: cell-free assay
Technique: competition with immobilised ligand
Concentration: 1 µM
target | remaining binding
Serine/threonine-protein kinase Nek5 (NEK5, Homo sapiens, UniProt Q6P3R8) | 100%
Hepatocyte growth factor receptor (MET, Homo sapiens, UniProt P08581, M1250T) | 82%
NUAK family SNF1-like kinase 2 (NUAK2, Homo sapiens, UniProt Q9H093) | 100%
Cyclin-dependent kinase 11A (CDK11A, Homo sapiens, UniProt Q9UQ88) | 99%

Set 4
SMILES: CC(C)n1cnc(-c2ccc(F)cc2)c1-c1ncc(C(=O)Nc2ccc(N3CCN(C)CC3)cc2)[nH]1
Technique: Phase 2a trial
Host: idiopathic pulmonary fibrosis patients
test | setting | patients with adverse events [%]
item: vision blurred | 30 mg once daily, grade 5 maximum intensity | 0
item: weight increased | dose not given, grade 3 maximum intensity, all arms | 0
item: infections and infestations | 60 mg once daily, grade 4 maximum intensity | 0
item: urinary tract infection | 60 mg once daily, grade 4 maximum intensity | 0

Set 5
Target: Diamine acetyltransferase 1 (Homo sapiens, UniProt P21673)
Action: inhibitor
Concentration: 10 µM
Baseline: control
Residues (P21673 1-171): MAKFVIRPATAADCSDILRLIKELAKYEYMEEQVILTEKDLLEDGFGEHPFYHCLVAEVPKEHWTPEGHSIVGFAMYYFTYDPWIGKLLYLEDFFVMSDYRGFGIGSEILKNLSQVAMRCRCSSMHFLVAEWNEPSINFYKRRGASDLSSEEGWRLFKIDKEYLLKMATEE
SMILES | remaining activity
CCCCCCCC/C=C\CCCCCCCC(=O)OCC | 89.7%
COc1cc(C(C)=O)ccc1O | 100%
O=c1cc(-c2ccc(O)cc2)oc2cc(O[C@@H]3O[C@H](CO)[C@@H](O)[C@H](O)[C@H]3O[C@@H]3OC[C@](O)(CO)[C@H]3O)cc(O)c12 | 101%

Set 6
Cell line: mouse MPNST tumor cells
Technique: high-content immunofluorescence imaging
Item: nuclear SOX9
Concentration: 10 µM
Time: 12 h
Setting: mean of 2 replicates
Baseline: DMSO control
Reading: higher = more nuclear SOX9
Compound | nuclear SOX9 intensity
O=C(NC1CCC1)c1ccc(C#Cc2cccc(F)c2)nc1 | 89.6 % of DMSO
O=NN(CCCl)C(=O)NCCCl | 106 % of DMSO
N[C@@H](C(=O)N[C@@H]1C(=O)N2C(C(=O)O)=C(Cl)CC[C@H]12)c1ccccc1 | 95.3 % of DMSO

Further values, each from its own experiment
Action: inhibitor
CAMK2A: Calcium/calmodulin-dependent protein kinase type II subunit alpha (CAMK2A, Homo sapiens, UniProt Q9UQM7)
Chain of UniProt Q9UQM7 (whole entry, looked up): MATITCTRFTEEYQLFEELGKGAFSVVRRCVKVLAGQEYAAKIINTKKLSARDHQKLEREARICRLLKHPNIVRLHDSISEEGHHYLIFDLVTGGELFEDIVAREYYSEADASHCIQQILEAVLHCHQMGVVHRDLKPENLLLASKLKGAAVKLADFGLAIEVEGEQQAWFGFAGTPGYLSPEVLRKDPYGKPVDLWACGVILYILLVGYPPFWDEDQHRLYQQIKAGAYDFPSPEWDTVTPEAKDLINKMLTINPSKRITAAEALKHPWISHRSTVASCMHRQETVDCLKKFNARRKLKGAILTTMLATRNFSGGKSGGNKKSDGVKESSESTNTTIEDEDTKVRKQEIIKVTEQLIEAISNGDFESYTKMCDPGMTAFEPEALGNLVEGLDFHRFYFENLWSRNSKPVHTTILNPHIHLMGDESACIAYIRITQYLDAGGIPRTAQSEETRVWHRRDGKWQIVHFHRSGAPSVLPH
Compound | target | test | setting | measurement | value
O=C1C(O)=C([C@H]2CC[C@H](c3ccc(Cl)cc3)CC2)C(=O)c2ccccc21 | CAMK2A | enzyme activity | 10 µM | inhibition | -14%
CC(C)S(=O)(=O)c1ccc2nccc(Nc3ccc4sc(C5CCCC5)nc4c3)c2c1.Cl | Activated CDC42 kinase 1 (TNK2, Homo sapiens, UniProt Q07912) | kinase activity | 1 µM | remaining activity | 77%
C[C@@H]1O[C@@H](Oc2cc(O)c3c(=O)c(O)c(-c4ccc(O)c(O)c4)oc3c2)[C@H](O)[C@H](O)[C@H]1O | CAMK2A | enzyme activity | 10 µM | inhibition | -8%
